# Measured values from different studies.
# Values joined by “and” are separate records of one study, mostly repeats; a detail may differ. ± gives the spread as reported.
Compound,cell line,assay,setting,scale,measurement,result
C=CCN1C(=O)C(CC=C)(C(=O)OCC)Oc2cc(F)ccc21 (centres unmarked),HaCaT,"cell growth or viability, CCK-8","25 µM, 72 h",,inhibition,0.53%
CC(C)=CCc1c(O)cc2c(c1O)C(=O)CC(c1ccc(O)cc1)O2 (centres unmarked),HeLa,"cell growth or viability, MTT","50 µM, 48 h",,inhibition,70.6%
CC[C@H](C)[C@H](NC(=O)CNC(=O)[C@H](Cc1ccc(O)cc1)NC(=O)[C@H](CO)NC(=O)[C@H](Cc1ccc(O)cc1)NC(=O)[C@@H](NC(=O)[C@H](CC(=O)O)NC(=O)[C@H](CO)NC(=O)[C@H](CCC(N)=O)NC(=O)[C@H](Cc1ccccc1)NC(=O)[C@H](CO)NC(=O)[C@H](Cc1ccccc1)NC(=O)[C@@H]1CCCN1C(=O)[C@H](CC(N)=O)NC(=O)[C@H](CC(N)=O)NC(=O)[C@H](CC(=O)O)NC(=O)[C@H](CCC(N)=O)NC(=O)[C@@H]1CCCN1C(=O)[C@H](CCCNC(=N)N)NC(=O)[C@H](CCCNC(=N)N)NC(=O)[C@H](CCCNC(=N)N)NC(=O)[C@H](CCC(N)=O)NC(=O)[C@H](CCCNC(=N)N)NC(=O)[C@H](CCCNC(=N)N)NC(=O)[C@H](CCCCN)NC(=O)[C@H](CCCCN)NC(=O)[C@H](CCCNC(=N)N)NC(=O)CN)C(C)C)C(=O)N[C@H](C(=O)N[C@@H](CC(C)C)C(N)=O)C(C)C,MCF7,"immunoblot densitometry, measured: phospho-MEK1/2 Ser217/221","1 µM, 48 h, unit not given",reference: 0 µM,phospho-MEK1/2 level,1.66 and 1.38
COc1ccccc1-c1ccncc1C(=O)Nc1nnc(OCc2ccc(Cl)cc2)s1,RPE-1 TP53-/- BRCA1-/-,,8 µM,reference: untreated,colony survival,23.4% and 29.7%
C#CCNC(=O)c1ccc(S(=O)(=O)N[C@@H](CCCCNC(C)=S)C(=O)N[C@@H](CCCNC(=N)N)C(=O)N[C@@H](CC2CCCCC2)C(=O)N[C@H](CCCCN)C(=O)N[C@@H](CC2CCCCC2)C(=O)N[C@H](CCCNC(=N)N)C(=O)N[C@@H](CC2CCCCC2)C(N)=O)cc1,HEK-293T,"cell growth or viability, MTT",72 h,,EC50,48 µM
NC(=S)N/N=C/c1ccc(OCc2ccccc2)cc1,IMR-32,measured: GPX3,"100 µg/mL, 24 h",higher = more activity,glutathione peroxidase activity (OD450),0.053 a.u.
CCOC(=O)C1(Cc2ccccc2)Oc2cc(F)ccc2N(Cc2ccccc2)C1=O (centres unmarked),L02,"cell growth or viability, CCK-8","6.25 µM, 72 h",,inhibition,0.22%
CC1CCC2C(C)C(OC(=O)CCC(=O)N3CCC(Nc4ccc(S(=O)(=O)NC(=O)c5ccc(N6CCN(CC7=C(c8ccc(Cl)cc8)CC(C)(C)CC7)CC6)cc5Oc5cnc6[nH]ccc6c5)cc4[N+](=O)[O-])CC3)OC3OC4(C)CCC1C32OO4 (centres unmarked),THP-1,"annexin V/PI flow cytometry, measured: annexin V-/PI-","1.6 µM, 24 h",,viable cells,20.4%
COc1ccc(NC(=O)c2ccc3[nH]c(-c4ccc(N(C)C)cc4)nc3c2)cn1,HCT116,IncuCyte,"concentration not given, 20 (unit not given)",,PI-positive cells,71.8 count and 129 count and 95.8 count
CC(C)(C)C(=O)OCOP(=O)(OCOC(=O)C(C)(C)C)C1CCCN(O)C1=O (centres unmarked),HT-29,,,,log TGI,-5.07 log M
CC(=O)NCSC[C@H](NC(=O)[C@@H]1CCCN1C(=O)[C@H](C)NC(=O)[C@@H](NC(=O)CNC(=O)[C@@H](NC(=O)[C@H](Cc1c[nH]c2ccccc12)NC(=O)[C@H](C)NC(=O)CNC(=O)[C@H](CO)NC(=O)[C@H](C)NC(=O)[C@@H]1CCCN1C(=O)[C@H](Cc1c[nH]c2ccccc12)NC(=O)[C@H](C)NC(=O)[C@H](C)NC(=O)[C@@H](N)Cc1ccc(O)cc1)[C@@H](C)O)[C@@H](C)O)C(=O)N[C@@H](CO)C(=O)N[C@@H](C)C(=O)NCC(=O)N[C@H](C(=O)NCCOCCOCCOCCOCCOCCOCCOCCOCCOCCOCCOCCOCCC(=O)N[C@@H](CS)C(N)=O)[C@@H](C)O,H2009,phage binding,"10 min, 37 °C",reference: control phage,selectivity ratio,310 ± 140

# Repeated from above:
Compound,cell line,assay,setting,scale,measurement,result
NC(=S)N/N=C/c1ccc(OCc2ccccc2)cc1,IMR-32,measured: GPX3,"100 µg/mL, 24 h",higher = more activity,glutathione peroxidase activity (OD450),0.053 a.u.
